{"data": "Results pooled from the literature", "note": "Every numbered part comes from another study and shows a few of its results, in no order.", "UniProt P45974, sequence (whole entry, looked up)": "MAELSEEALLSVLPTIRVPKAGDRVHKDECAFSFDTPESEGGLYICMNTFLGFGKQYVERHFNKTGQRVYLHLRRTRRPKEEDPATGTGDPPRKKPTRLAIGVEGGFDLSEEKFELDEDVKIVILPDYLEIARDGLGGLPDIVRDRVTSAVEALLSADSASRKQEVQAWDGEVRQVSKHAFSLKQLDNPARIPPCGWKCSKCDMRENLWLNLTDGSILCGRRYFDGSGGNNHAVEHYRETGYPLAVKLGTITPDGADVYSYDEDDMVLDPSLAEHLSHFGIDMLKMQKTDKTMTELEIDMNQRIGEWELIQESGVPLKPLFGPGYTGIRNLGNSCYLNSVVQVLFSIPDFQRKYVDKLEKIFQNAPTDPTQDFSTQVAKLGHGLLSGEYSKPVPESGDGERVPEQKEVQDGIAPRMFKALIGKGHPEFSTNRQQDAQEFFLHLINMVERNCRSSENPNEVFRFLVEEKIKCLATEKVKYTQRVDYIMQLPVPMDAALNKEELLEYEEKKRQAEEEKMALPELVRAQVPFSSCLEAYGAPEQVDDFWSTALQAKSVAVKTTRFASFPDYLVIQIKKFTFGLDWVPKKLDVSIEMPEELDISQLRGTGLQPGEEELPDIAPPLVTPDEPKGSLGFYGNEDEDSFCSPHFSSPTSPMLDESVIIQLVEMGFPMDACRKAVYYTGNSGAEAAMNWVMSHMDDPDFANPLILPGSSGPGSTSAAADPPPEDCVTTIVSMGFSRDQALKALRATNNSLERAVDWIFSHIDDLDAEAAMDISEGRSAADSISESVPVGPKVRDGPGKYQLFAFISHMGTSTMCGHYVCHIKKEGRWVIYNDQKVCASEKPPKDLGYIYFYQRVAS", "UniProt P21580, sequence (whole entry, looked up)": "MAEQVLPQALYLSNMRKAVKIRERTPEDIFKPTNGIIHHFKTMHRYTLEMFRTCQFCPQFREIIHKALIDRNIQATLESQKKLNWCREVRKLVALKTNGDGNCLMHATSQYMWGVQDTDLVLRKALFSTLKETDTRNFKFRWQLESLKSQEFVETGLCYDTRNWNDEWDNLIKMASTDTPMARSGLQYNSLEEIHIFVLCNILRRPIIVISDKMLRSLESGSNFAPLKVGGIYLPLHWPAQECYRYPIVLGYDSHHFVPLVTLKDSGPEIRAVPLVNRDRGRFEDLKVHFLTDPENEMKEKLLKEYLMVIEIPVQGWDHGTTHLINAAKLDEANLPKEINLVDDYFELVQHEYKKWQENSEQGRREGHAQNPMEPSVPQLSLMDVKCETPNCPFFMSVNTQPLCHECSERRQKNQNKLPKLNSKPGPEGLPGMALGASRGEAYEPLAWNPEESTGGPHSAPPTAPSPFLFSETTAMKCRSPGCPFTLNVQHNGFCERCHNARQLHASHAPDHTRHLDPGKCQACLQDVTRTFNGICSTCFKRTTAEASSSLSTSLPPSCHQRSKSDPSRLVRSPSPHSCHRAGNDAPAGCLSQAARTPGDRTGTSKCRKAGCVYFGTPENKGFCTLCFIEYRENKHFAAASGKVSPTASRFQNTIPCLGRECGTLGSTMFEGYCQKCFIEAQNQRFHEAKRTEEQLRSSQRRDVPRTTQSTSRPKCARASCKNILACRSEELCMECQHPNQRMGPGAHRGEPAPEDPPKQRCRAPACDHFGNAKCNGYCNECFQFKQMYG", "UniProt P54578, sequence (whole entry, looked up)": "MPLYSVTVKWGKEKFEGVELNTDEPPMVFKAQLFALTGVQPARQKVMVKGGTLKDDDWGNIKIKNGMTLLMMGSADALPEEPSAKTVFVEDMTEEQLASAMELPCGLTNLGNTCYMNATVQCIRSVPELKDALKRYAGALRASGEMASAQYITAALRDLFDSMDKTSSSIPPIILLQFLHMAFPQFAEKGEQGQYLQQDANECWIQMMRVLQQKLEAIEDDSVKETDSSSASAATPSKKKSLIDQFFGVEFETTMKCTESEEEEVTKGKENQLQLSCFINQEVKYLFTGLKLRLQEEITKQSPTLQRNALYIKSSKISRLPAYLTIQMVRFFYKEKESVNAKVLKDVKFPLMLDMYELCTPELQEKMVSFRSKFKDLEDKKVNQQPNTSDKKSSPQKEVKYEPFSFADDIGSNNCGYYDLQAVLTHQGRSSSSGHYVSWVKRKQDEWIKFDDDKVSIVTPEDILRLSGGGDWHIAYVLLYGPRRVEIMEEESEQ", "UniProt Q8N6M0, sequence (whole entry, looked up)": "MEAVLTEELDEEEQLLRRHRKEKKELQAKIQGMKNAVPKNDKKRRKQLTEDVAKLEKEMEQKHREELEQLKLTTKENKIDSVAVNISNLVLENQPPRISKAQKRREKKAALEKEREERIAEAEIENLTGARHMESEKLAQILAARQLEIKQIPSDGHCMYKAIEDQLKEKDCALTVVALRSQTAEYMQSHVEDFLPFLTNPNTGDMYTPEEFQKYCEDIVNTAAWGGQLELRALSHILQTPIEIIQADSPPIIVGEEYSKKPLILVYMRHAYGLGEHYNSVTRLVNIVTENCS"}
{"data": "Block 1", "Substance": "ubiquitin aldehyde", "effect on": "enzyme activity", "USP7": "Ubiquitin carboxyl-terminal hydrolase 7 (USP7, Homo sapiens, UniProt Q93009)", "USP10": "Ubiquitin carboxyl-terminal hydrolase 10 (USP10, Homo sapiens, UniProt Q14694)", "UniProt Q93009, sequence (whole entry, looked up)": "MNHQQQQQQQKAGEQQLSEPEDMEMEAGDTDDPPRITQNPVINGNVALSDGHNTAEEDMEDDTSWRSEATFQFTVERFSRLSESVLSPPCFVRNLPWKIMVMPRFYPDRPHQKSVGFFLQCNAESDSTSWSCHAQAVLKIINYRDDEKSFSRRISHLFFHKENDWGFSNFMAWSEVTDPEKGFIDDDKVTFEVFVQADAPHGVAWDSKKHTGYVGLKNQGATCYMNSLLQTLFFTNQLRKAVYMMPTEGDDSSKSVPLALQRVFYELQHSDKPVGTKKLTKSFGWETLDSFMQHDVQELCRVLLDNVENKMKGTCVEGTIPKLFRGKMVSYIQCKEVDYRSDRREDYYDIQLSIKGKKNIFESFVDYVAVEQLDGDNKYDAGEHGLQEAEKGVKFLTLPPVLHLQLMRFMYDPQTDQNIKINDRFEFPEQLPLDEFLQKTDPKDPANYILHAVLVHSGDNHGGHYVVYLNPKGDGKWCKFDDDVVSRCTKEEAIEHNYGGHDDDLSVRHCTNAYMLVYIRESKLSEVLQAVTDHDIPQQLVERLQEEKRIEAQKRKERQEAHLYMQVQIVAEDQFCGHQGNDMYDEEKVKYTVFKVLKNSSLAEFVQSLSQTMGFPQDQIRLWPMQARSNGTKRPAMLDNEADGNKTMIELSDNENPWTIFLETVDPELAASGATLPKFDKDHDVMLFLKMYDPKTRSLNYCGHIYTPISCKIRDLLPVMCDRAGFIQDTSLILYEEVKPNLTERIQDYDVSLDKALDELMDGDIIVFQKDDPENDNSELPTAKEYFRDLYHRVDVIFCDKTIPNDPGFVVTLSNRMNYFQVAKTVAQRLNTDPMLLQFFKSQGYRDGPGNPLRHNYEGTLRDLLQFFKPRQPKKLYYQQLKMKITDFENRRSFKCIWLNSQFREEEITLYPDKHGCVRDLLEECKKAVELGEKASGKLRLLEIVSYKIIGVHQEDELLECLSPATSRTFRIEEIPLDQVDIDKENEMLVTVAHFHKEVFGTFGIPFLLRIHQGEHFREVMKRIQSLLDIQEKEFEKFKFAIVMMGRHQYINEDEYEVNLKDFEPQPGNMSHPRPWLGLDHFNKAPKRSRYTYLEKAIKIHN"}
{"target": "USP7", "tested at": "0.001 µM", "inhibition [%]": 12}
{"target": "USP10", "tested at": "1 µM", "inhibition [%]": 83}
{"target": "TNFAIP3 (Homo sapiens, UniProt P21580)", "tested at": "0.001 µM", "inhibition [%]": 11}
{"target": "Ubiquitin carboxyl-terminal hydrolase 5 (USP5, Homo sapiens, UniProt P45974)", "tested at": "0.1 µM", "inhibition [%]": 57}
{"target": "USP10", "tested at": "0.1 µM", "inhibition [%]": 43}
{"target": "Deubiquitinase OTUD6B (OTUD6B, Homo sapiens, UniProt Q8N6M0)", "tested at": "0.01 µM", "inhibition [%]": 6}
{"target": "USP7", "tested at": "0.1 µM", "inhibition [%]": 97}
{"target": "Ubiquitin carboxyl-terminal hydrolase 14 (USP14, Homo sapiens, UniProt P54578)", "tested at": "0.1 µM", "inhibition [%]": 100}
{"data": "Block 2", "target": "HLA class I histocompatibility antigen, A alpha chain, allele A*26:03 (Homo sapiens, UniProt P04439)", "effect on": "peptide-MHC binding", "form": "peptide", "tested at": "concentration not given"}
{"Molecule": "REIGDISYL", "binding": "inactive"}
{"Molecule": "KVFFGPIYY", "binding": "inactive"}
{"Molecule": "ALYSYASAK", "binding": "inactive"}
{"Molecule": "VLDMGDPVK", "binding": "inactive"}
{"Molecule": "REFEAQNVP", "binding": "inactive"}
{"Molecule": "IEAGDEVFF", "binding": "inactive"}
{"Molecule": "DPKKTGGPI", "binding": "inactive"}
{"Molecule": "YFENSDLNL", "binding": "inactive"}
{"data": "Further values, each from its own experiment"}
{"SMILES": "O=C1NC(=O)c2c1c1c3ccccc3n3c1c1c2c2ccccc2n1[C@H]1CC[C@@H]3O1", "target or system": "mouse MPNST tumor cells", "assay": "high-content nuclear imaging, measured: cell number", "setting": "10 µM, 12 h, mean of 2 replicates", "scale": "reference: plate mean, higher = more cells", "quantity": "nuclei count", "result": "-1.8 z-score"}
{"SMILES": "C[C@@H]1[C@H](O)[C@@H](C)/C=C/C=C/CC/C=C/C=C/C=C/C=C/[C@H](O[C@H]2O[C@@H](C)[C@H](O)[C@@H](N)[C@H]2O)C[C@@H]2O[C@](O)(C[C@@H](O)[C@H](O)CC[C@@H](O)C[C@@H](O)C[C@@H](O)CC(=O)O[C@H]1C)C[C@H](O)[C@H]2C(=O)O", "target or system": "HaCaT", "setting": "100 µM, 18 h", "quantity": "viability", "result": "96%"}
{"SMILES": "CCP(=O)(O)CCCN", "target or system": "mouse MPNST tumor cells", "assay": "high-content nuclear imaging, measured: cell number", "setting": "10 µM, 12 h, mean of 2 replicates", "scale": "reference: plate mean, higher = more cells", "quantity": "nuclei count", "result": "0.816 z-score"}
{"SMILES": "CC(C)(C)NC(=O)c1cncn1C(c1ccc(Cl)cc1)c1ccc(Cl)cc1", "test system": "mouse, microsomes or S9", "setting": "2 µM, 0.5 h", "quantity": "remaining compound", "result": "74.8%"}
{"note": "For quick reference, copied from above (block 1):"}
{"target": "Ubiquitin carboxyl-terminal hydrolase 5 (USP5, Homo sapiens, UniProt P45974)", "tested at": "0.1 µM", "inhibition [%]": 57}
